# Published values from different studies.
# Several values in a cell are separate wells, animals, samples, runs or records. ± gives the spread as reported.
# MAL12: Alpha-glucosidase MAL12 (MAL12, Saccharomyces cerevisiae S288c, UniProt P53341)
# BDKRB1: B1 bradykinin receptor (BDKRB1, Homo sapiens, UniProt P46663)
# USP51: Ubiquitin carboxyl-terminal hydrolase 51 (USP51, Homo sapiens, UniProt Q70EK9)
# Adhesin FmlH lectin domain: Adhesin FmlH, lectin domain (Escherichia coli, UniProt Q1RBS0)
# PDK4: [Pyruvate dehydrogenase (acetyl-transferring)] kinase isozyme 4, mitochondrial (PDK4, Homo sapiens, UniProt Q16654)
# PTGS1: Prostaglandin G/H synthase 1 (PTGS1, Ovis aries, UniProt P05979)
# PLG: Plasminogen (PLG, Homo sapiens, UniProt P00747)
# HTR5A: 5-hydroxytryptamine receptor 5A (HTR5A, Homo sapiens, UniProt P47898)
Compound,target,assay,test system,conditions,inhibition
O=c1ccc2ccc(O)c(Cn3ccnc3)c2o1,MAL12,inhibitor,,25 µM,< 0%
Cn1ccc2cc(-n3c(=O)[nH]c4sc5c(c4c3=O)CCCC5)ccc21,BDKRB1,"cell-free assay, radioligand",,10 µM,8%
CCOC(=O)c1cc(S(=O)(=O)Nc2cc(OC)c(OC)c(OC)c2)n[nH]1,USP51,"enzyme activity, inhibitor",,1 µM,23.3 ± 8.8%
N#Cc1ccccc1O[C@@H]1O[C@H](CO)[C@H](O)[C@H](O)[C@H]1O,Adhesin FmlH lectin domain,"binding to desialylated mucin, ELISA competition",UPEC UTI89,100 µM,94.5 ± 0.3%
Cl.Cl.N[C@@H](C(=O)N1CCCC1)C1CCN(c2nccc3c(-c4ncc(Cl)cc4Cl)cccc23)CC1,"Protein-arginine deiminase type-4 (PADI4, Homo sapiens, UniProt Q9UM07)","enzyme activity, inhibitor",,"80 µM, added: Ca2+ 0.4 mM",82.9% and 57.5% and 54.6%
Cc1nc2c(F)cc(-c3nc(Nc4ccc(CNC(=O)CCCCCCC(=O)NO)cc4)ncc3F)cc2n1C(C)C,PDK4,"enzyme activity, inhibitor",,1 µM,0%
CC(C)[C@H](NC(=O)[C@@H](N)CCC(=O)O)C(=O)N[C@@H](CC(N)=O)C(=O)N[C@@H](Cc1ccc(O)cc1)C(=O)N[C@@H](CC(=O)O)C(=O)N[C@@H](Cc1ccccc1)C(=O)NCC(=O)NCC(=O)N[C@@H](CCCCN)C(=O)O,"Angiotensin-converting enzyme (ACE, Homo sapiens, UniProt P12821)","enzyme activity, inhibitor",,1.4 mM,76.8%
C[Si](C)(C)C[C@@H](CN)CC(=O)O,"High affinity choline transporter 1 (Rattus norvegicus, UniProt Q9JMD7)","ligand displacement, radioligand",,75 µM,-42%
CN(C)C/C=C/C(=O)Nc1ccc2nc(NCCCCCN(C)C)nc(NCCCCCCN(C)C)c2c1,"Histone-lysine N-methyltransferase 2C (KMT2C, Homo sapiens, UniProt Q8NEZ4)","enzyme activity, inhibitor, radiometric",,50 µM,35%
CS(=O)(=O)c1ccc(-n2cc(C=NN=c3[nH]c(-c4ccc(Br)cc4)cs3)c(-c3ccc([N+](=O)[O-])cc3)n2)cc1 (mixture of isomers),PTGS1,enzyme activity,,100 µM,81%
CCn1cc(C(=O)O)c(=O)c2c(N)c(F)c(NC3CCCCC3)cc21,PDK4,kinase activity,,"0.1 µM, added: ATP at Km",-2.5%
O=C1c2sc(-c3ccc(N4CCC(CO)CC4)nc3F)nc2CCN1c1cccnc1,"Endothelin-1 receptor (EDNRA, Homo sapiens, UniProt P25101)","ligand displacement, radioligand",,1 µM,-9%
CS(=O)(=O)c1ccc(-n2cc(C=NN=c3[nH]c(-c4ccc([N+](=O)[O-])cc4)cs3)c(-c3ccc([N+](=O)[O-])cc3)n2)cc1,PTGS1,enzyme activity,,10 µM,60.4%
OC[C@H]1O[C@H](Oc2ccc(-c3ccccc3)cc2)[C@H](O)[C@@H](O)[C@H]1O,Adhesin FmlH lectin domain,"binding to desialylated mucin, ELISA competition",UPEC UTI89,"10 µM, added: desialylated bovine submaxillary mucin",22.6 ± 3.9%
Cc1ccc(CNC(=O)C(CCc2ccccc2)NC(=O)C(NC(=O)Cc2cccc(Oc3ccccc3)c2)C(C)O)cc1 (stereo not shown),PLG,"enzyme activity, inhibitor",,100 µM,-9%
COc1cc(-c2cn(C)c(=O)c3cnccc23)cc(OC)c1CN(C)C,"Bromodomain-containing protein 3, BD1 (BRD3, Homo sapiens, UniProt Q15059)",,,1 µM,3.35%
CCCCn1c(SCc2nc(-c3ccc(CC)cc3)no2)nc2cc3c(cc2c1=O)OCO3,USP51,"enzyme activity, inhibitor",,1 µM,38.6 ± 8.8%
CO[C@@H](C)c1c(NC(=O)Nc2cnc(-n3nccn3)c(C(F)(F)F)c2)cnc2sc(C)nc12,"Prostaglandin E2 receptor EP4 subtype (PTGER4, Homo sapiens, UniProt P35408)","ligand displacement, radioligand",,10 µM,-2.4%
Brc1ccccc1-c1nnc(CSc2nnnn2-c2ccccc2)o1,HTR5A,"ligand displacement, radioligand",,10 µM,-1%
COc1cc(C2NCCc3cc(O)c(O)cc32)cc(OC)c1OC (stereo not shown),MAL12,"enzyme activity, inhibitor",,"100 µM, DMSO solvent, added: pNPG substrate",38 ± 0.63%
O=C(O)c1cccc(-c2ccccc2O[C@H]2O[C@H](CO)[C@H](O)[C@H](O)[C@H]2O)c1,Adhesin FmlH lectin domain,"binding to desialylated mucin, ELISA competition",UPEC UTI89,100 µM,26.2 ± 5.9%
C[C@H](NC(=O)[C@H](CC(=O)NCC(C)(C)C)NC(=O)C(=O)c1c[nH]c2ccccc12)C(=O)NCc1ccc(F)cc1F,PLG,"enzyme activity, inhibitor",,100 µM,5%
Cc1ccnc(OC[C@H]2CN(CCN3CCc4ccccc43)CCO2)c1,HTR5A,radioligand binding,,"concentration not given, added: [3H]LSD",-11.6%
CS(=O)(=O)c1ccc(-n2cc(C=NN=c3[nH]c(-c4ccc([N+](=O)[O-])cc4)cs3)c(-c3ccc(Br)cc3)n2)cc1,PTGS1,enzyme activity,,1 µM,31.4%
CC(=O)c1ccc(NC(=O)CN2CCC(c3nc(-c4cccc(F)c4)no3)CC2)cc1,"D(2) dopamine receptor (DRD2, Homo sapiens, UniProt P14416)","enzyme activity, inhibitor",,10 µM,21.8%
COc1ccc2c(c1)C(CC(=O)NC(C(=O)NC(CCc1ccccc1)C(=O)NCc1ccc(C)cc1)C(C)O)CC2=O (stereo not shown),PLG,"enzyme activity, inhibitor",,100 µM,-11%
COc1ccc(C2CC(=O)N(CC(=O)Nc3ccc(F)cc3)c3ccccc3S2(=O)=O)cc1OC (stereo not shown),USP51,"enzyme activity, inhibitor",,1 µM,3.8 ± 1.1%
C[Si]1(C[C@H](CN)CC(=O)O)CCCC1,BDKRB1,"ligand displacement, radioligand",,70 µM,18%
CC(=O)N[C@H]1[C@@H](Oc2ccc([N+](=O)[O-])cc2)O[C@H](CO)[C@H](O)[C@@H]1O,Adhesin FmlH lectin domain,"binding to desialylated mucin, ELISA competition",UPEC UTI89,"10 µM, added: desialylated bovine submaxillary mucin",6.3 ± 3.7%
O=C(N[C@@H](CCNC(=O)c1ccc([N+](=O)[O-])o1)c1nc2ccccc2[nH]1)c1ccc(-n2cnnn2)cc1,"Stimulator of interferon genes protein (STING1, Homo sapiens, UniProt Q86WV6, H232R)","reporter gene, inhibitor, Lucia reporter",THP1-Dual,"concentration not given, wild-type STING, added: diABZI",inactive
COc1ccc(C2Nc3ccccc3-n3c(-c4ccccc4C)c4c(=O)n(C)c(=O)n(C)c4c32)cc1O (stereo not shown),USP51,"enzyme activity, inhibitor",,1 µM,3.6 ± 1%
O=C1c2sc(-c3ccc(N4CCC(F)C4)nc3F)nc2CCN1c1cccnc1 (stereo not shown),"Alpha-2B adrenergic receptor (ADRA2B, Homo sapiens, UniProt P18089)","ligand displacement, radioligand",,1 µM,7%
Cc1c(C)c2ccc(O[C@@H]3O[C@H](CO)[C@H](O)[C@H](O)[C@H]3O)cc2oc1=O,Adhesin FmlH lectin domain,"binding to desialylated mucin, ELISA competition",UPEC UTI89,100 µM,89.2 ± 0.4%
CC(C)Cc1ccc(-c2nn(-c3ccc(S(C)(=O)=O)cc3)cc2C=NN=c2[nH]c(-c3ccc(Br)cc3)cs2)cc1,PTGS1,enzyme activity,,100 µM,90.1%
COc1cc(NS(=O)(=O)c2ccc(NC(=O)c3ccccc3I)cc2)nc(OC)n1,USP51,"enzyme activity, inhibitor",,1 µM,19.6 ± 3.8%
Cc1ccc(O[C@@H]2O[C@H](CO)[C@H](O)[C@H](O)[C@H]2O)cc1,Adhesin FmlH lectin domain,"binding to desialylated bovine submaxillary mucin, inhibitor, ELISA competition",UPEC UTI89,1 µM,4.6 ± 7.9%
"CC(=O)C12NC(C)(C)CC1(C)C(=O)C1=C2c2c(c3c4n2C(C)(C)CC2=C4C4(CC(C)(C)NC(C)(C4)C2=O)CC3(C)C)C(=O)C(C)(C)N1 (single isomer, unassigned; (-))","P2X purinoceptor 7 (P2RX7, Homo sapiens, UniProt Q99572)","ion current, patch clamp",P2X7,10 µM,34.8%
